Measured values collected from several papers.
Each numbered part is a random draw from the data of one study; scales do not carry over between parts. Positions count from the first letter of the parent shown.

Block 1
Target: Histone acetyltransferase KAT6A, both winged helices, GST fusion (KAT6A, Homo sapiens, UniProt Q92794, residues 1-181)
Technique: protein binding microarray
Form: double-stranded DNA, one strand shown
Medium: in vitro
Tested at: not given
Setting: 8-mer, flanks averaged, mean of 2 arrays, mostly near background
Baseline: not given
Direction: higher = stronger binding
Target sequence (chain): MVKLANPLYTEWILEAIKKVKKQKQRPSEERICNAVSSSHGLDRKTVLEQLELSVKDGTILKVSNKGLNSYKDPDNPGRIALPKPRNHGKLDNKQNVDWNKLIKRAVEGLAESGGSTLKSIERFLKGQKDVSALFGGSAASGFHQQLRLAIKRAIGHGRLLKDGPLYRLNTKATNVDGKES
| Strand | E-score |
| --- | --- |
| CTCTTTCC | -0.105 |
| CCGTTTGC | 0.207 |
| CTGGTGTC | -0.184 |
| GGAGTTCA | -0.129 |
| AACCGATA | 0.123 |
| CCATATTA | -0.0402 |
| CATTCGGA | 0.0738 |
| GCACGTAC | 0.0114 |
| CCCATAGG | -0.0918 |
| AAGCAGCA | -0.179 |
| AGGGTTTG | -0.153 |
| ACTGTGCC | 0.0457 |
| AGATTACA | -0.0329 |
| CGAAATGC | -0.0813 |
| CCCTAAGC | -0.059 |
| GAATATGC | 0.0578 |
| CGCTGTGA | -0.0293 |
| GGCATTGA | 0.00833 |
| CATCAGCA | -0.101 |
| AACATACT | -0.139 |
| CAAGTCCA | -0.188 |
| ATTTTGAC | -0.0822 |
| ATAGAAGA | 0.0252 |
| AAGAACAT | -0.119 |
| ACACTCAC | -0.0667 |

Block 2
Target: ABI1, truncated, D143A, DHFR fusion (Arabidopsis thaliana)
Technique: DHFR PCA, deep sequencing
Medium: yeast
Setting: methotrexate growth selection, single substitutions
With: (+)-ABA 0.0091 µM
Baseline: wild-type fitted maximum
Direction: higher = stronger binding
Starting sequence: PYL1, truncated, DHFR fusion (Arabidopsis thaliana); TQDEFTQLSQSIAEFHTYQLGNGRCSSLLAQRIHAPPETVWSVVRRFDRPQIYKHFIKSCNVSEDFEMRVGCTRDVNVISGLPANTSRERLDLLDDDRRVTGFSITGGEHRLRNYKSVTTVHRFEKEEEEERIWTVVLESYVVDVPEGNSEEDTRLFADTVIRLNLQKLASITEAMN; partner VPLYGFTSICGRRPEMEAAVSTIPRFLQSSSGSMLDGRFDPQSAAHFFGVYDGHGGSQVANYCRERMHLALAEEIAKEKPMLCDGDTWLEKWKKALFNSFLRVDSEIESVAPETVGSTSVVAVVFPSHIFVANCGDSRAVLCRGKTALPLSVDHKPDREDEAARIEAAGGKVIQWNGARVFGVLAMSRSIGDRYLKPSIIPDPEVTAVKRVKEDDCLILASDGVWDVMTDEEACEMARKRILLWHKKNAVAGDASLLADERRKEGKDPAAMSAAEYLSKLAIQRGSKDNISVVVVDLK
| Substitution | relative binding score [%] |
| --- | --- |
| A170G | -0.574 |
| P37K | -6.19 |
| V142W | -1.05 |
| C72L | -0.0219 |
| I57D | -7.46 |
| T1R | 23.3 |
| A13Q | 40.3 |
| I162H | 4.99 |
| T1H | 23.2 |
| H122D | -1.37 |
| T154N | -4.73 |
| S9P | 3.61 |

Block 3
Target: RNA binding protein fox-1 homolog 2, RRM domain, GST-SBP tag (RBFOX2, Homo sapiens, UniProt O43251-10, residues 100-194)
Technique: RNA Bind-n-Seq
Form: RNA
Medium: in vitro
Tested at: 365 nM
Setting: natural RNA segment, single round, ends assumed
Baseline: no-protein control
Direction: higher = stronger binding
Constant ends, left off below: GGGAGUUCUACAGUCCGACGAUC … UGGAAUUCUCGGGUGCCAA
Construct (chain): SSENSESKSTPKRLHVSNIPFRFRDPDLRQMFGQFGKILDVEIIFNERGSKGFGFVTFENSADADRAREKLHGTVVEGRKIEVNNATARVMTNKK
| Strand | RBNS enrichment (R) |
| --- | --- |
| AAUUACAUCAAAGGGCAACCUGCGCUUUCUCCAAUAAGUCUGAGUGGUUCUCUUGAGCUGGUGUCACUUUCUAACCUUUGCCAGUCUAGCCCCAGCAGGGCACCGUGUGU | 0.49 |
| CCAACAGGCUUUAAAACGUCCCUGAACGUACAGUAUUCUAAGUUACCGUGAGCCUUCACAAACAUCAUUCUCGAGGUUUUUUGCUUUUCUCCCUGCUUCAGUCUCCAGAG | 0.652 |
| AGAUGCCCCGGGACUGAGGCCGCCCUGCACCUUCAGCGGAUUUGGGGAUUAGGCUCUUUUAGGUAACUGGCUUUCCUGCUGGUCCGUGCGGGAAAUUCAGUCUUGAUUUA | 1.25 |
| AGAGUCUCUCCUGCCCUCCCUCCUUCCUGCAGGCAAAUAUACAAGCUAGACCCUGUUCCCUCACCCUGUAUCCUGUCUCCCCUAAUUGACAUUCUAUCAGCCCAACCCUC | 0.516 |
| UCUCCUGACACCUCUUGUGGGGUGCAUGUUCCUGCUCCAGGUAUGCUGUUCAUGUGGAUUCAUUCCAUUCAGUGGCCCCUUGGGGUUUGCAUGCCAGUGAAGCGUUACCA | 2.96 |
| UGGUUUUUGGGAUAGAACUUGGGCCAGGGCUAGGAACACAGGCUCCACGGUGACAUGUCAUUUGAUUGUAAAUUAAGUGUUCUGAUUAGUAAGAACUAAGCAGGGGGCCA | 0.343 |
| CAAGAGGAAGCUAAAAACCGAGAUCAUAGGAAAAUUGGCAGGGACCAAGAACUAUAUUUCUUUCAUGAACUCAGCCCUGGAAGUUGCUUUUUUCUGCCAAAAGGAGCCUA | 0.686 |
| CACGCCCAGGGGAUGUCCUCACGCUGUCGCCGCGCGGUUUCCCUUCGCAGAUGUGUAUACUCAUGAUAGGUCAGAAAGUGUAUCCGCUACAAUAAAGUUCUGGUUCUAAC | 0.267 |
| CUGCAUAGGUACAUCUAACUCUGGACUGGCAUGCACAUUGUCAUGUGCAGCUUUGCAUAUACACACAUGCAUACAUGAGCCUCCACACAAGCACUUGCACACAUGUGGAC | 0.468 |
| CACCUCUGAGGCUUCUAUCAUAACAGAAUACUGUGUGUGUAAAGGAAUGAGACUGCUUUUAAAGCAACACAUCAGAUCUUCUGCGUCUAAAAUGUAGAGUUUUUUUGAUU | 8.27 |
| GCCUGGGUUACAUAGGAAAUGCACCCUGAGGUUUUAAUAAAAGCCCCUAUGGCUAUAACUUUAAAUAAACUAAACCAAAAAUGUUAUUGAUGUUUUAUAUAUAGAGAGUA | 0.87 |
| GCUAAGUUGGAUUUCGUGCUGCUGUAAAUUGGAACUGUCGACUCUAAGUGCCUUUACUUAGGAAAAGCCAGUACCACAUCAUGGCUUCCUUCUUCACUCAAAGGCUGCUU | 0.214 |

Block 4
Target: RING finger protein unkempt homolog, zinc fingers 1-6, GST-SBP tag (UNK, Homo sapiens, UniProt Q9C0B0, residues 30-357)
Sequence of UniProt Q9C0B0 (30-357, looked up): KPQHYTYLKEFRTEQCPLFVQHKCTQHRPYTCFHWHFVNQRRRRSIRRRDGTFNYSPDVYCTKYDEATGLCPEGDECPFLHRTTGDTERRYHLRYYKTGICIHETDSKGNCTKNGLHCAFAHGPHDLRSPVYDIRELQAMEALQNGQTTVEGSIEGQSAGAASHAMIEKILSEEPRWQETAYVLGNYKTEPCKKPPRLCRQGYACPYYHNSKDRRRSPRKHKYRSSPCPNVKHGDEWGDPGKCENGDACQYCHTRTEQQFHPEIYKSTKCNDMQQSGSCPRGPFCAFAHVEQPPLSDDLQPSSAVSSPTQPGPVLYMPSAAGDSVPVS
Technique: RNA Bind-n-Seq
Form: RNA
Medium: in vitro
Tested at: not given
Setting: RNA with constant flanks, human and mouse sites, ends assumed
Baseline: input RNA pool
Direction: higher = stronger binding
Constant ends, left off below: GGGAGUUCUACAGUCCGACGAUC … CAACAGAGGAUUGAGCAUCA
| Strand | bound/input enrichment |
| --- | --- |
| AUGUGAAUAAAAUGUACAAAUUUGUUGUGUUUUUUUAUGUUCUGAGGCUGACUUCUAGGUCUUAGAUUAAUUUUUUAGGAAGGCCUUGCAUGCCAUCAAAAGUACAUUUGGCUGUGGUUU | 4.79 ratio |
| GGGGCAUUAAUUGCUUCUCUUAUCAACUGCUACAUCAGAGAUAAUGCCGCUGUUGAUGGCAUUAGUUUACAUUUACAGGAUAUCUGCCCACUUCUAUAUAGCACUGAUGAUGCAAUUUGU | 1.27 ratio |
| CCUGCCCCUCCUCGGAGCCUGCUUGUGGAAUUCUUCCCCUUCGGGUGUGUGGUGGCAUUCCCCGCCACGUCCAAUGUGGACUCCAAAGGAUUUGUCCCUUCUUUGUCAUUUGAAAUGAAA | 0.152 ratio |
| AAGCAGAAGUUGAUGCUGAAAGAGAGCUCCGCUGGGGACAGUUACUAUGACUACAUUUGUAUCAUUGACUUUGAGGCUACUUGUGAAGAGGGGAACCCAGCUGAGUUCCUACAUGAAAUC | 0.195 ratio |
| UCAUUGGCUUCAAAUCCAGCACCUUUCCCGGCUGGUGCUCGUGACCCAAGUAUGGCUUCUUUUCCAAGAGGGAUGAAUCCCACUGGCACAGGUGCAGUUUCUUUCCCAAGGCCUGGUGGC | 0.127 ratio |
| UAUCCAAAAAGAUUGUAUACAAAAACUAACAAACAGAAAAGUGAACUUUGUAAAUGUAUAGAAACAGUUCAUCAAGAUUCAUGUAAUGCCUGCUUUCCUCAGCAGGACCAGAGGAAUUCC | 0.25 ratio |
| GCAAUCAGCAGAGACAUUGAUACUGCUGCCAAAUUUAUUGGUGCAGGUGCUGCAACAGUAGGAGUGGCUGGUUCUGGUGCUGGUAUUGGAACAGUCUUUGGCAGCCUUAUCAUUGGUUAU | 0.125 ratio |
| AGAGGCUGAGAGUCCCCCCCACGGUUUUUUUUUUUCUUCAUUUAGAUGUAACAAGCCUAGUAGUUUAUGUUCAUCAAUUGUCUGUAUAUCUAUAUUUUACCCAUGUACUCUUUUGAUGUA | 14.4 ratio |
| CCUGGUGGGCAUGUGGGACGUUUCUGCAUUUGGACUGAAAGUGCUUUCCGGAAGUUAGAUGAAUUGUACGGCACUUGGCGUAAAGCCGCUUCCCUCAAGAGUAACUACAAUCUUCCCAUG | 0.387 ratio |
| UCUUCCCUUUUCGGGAUUCUGUCCCCUACUAGUGACCUCAUGCUGGCCAGUGUUCUGUGGGACAGAGGAGGAUCAAGUUUCUACACCCUGACGAGUUCAAACAUCAGCAAAUGGGAACUG | 0.106 ratio |
| AUAUGCCUGUGGCUGCUGGACACAUACCCAUAUAACCCCCCUAUCUGUUUUGUUAAGCCUACUAGUUCAAUGACUAUUAAAACAGGAAAGCAUGUGGAUGCAAAUGGGAAAAUCUACCUA | 0.234 ratio |

Block 5
Target: Sal-like protein 4, full length isoform B (SALL4, Homo sapiens, UniProt Q9UJQ4-2, residues 1-616)
Technique: universal PBM
Form: double-stranded DNA, one strand shown
Medium: in vitro
Tested at: not given
Setting: 8-mer, flanks averaged, mean of replicates
Direction: higher = stronger binding
Construct (chain): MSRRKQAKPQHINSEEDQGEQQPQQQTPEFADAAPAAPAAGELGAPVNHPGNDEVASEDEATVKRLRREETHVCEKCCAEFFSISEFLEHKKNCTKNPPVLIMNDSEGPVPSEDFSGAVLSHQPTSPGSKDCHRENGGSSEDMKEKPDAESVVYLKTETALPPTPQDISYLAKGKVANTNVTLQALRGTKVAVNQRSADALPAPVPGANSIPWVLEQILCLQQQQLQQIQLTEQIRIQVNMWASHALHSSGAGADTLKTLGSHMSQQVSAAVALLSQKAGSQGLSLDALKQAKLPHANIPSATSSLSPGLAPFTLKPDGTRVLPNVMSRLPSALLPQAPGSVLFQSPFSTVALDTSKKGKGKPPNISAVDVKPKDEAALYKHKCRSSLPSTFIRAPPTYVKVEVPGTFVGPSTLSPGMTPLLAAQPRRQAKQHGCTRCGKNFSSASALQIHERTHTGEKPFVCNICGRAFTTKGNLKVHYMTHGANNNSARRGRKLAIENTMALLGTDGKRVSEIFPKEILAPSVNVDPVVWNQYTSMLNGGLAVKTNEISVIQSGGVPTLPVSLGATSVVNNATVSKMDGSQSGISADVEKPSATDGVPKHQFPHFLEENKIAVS
| Strand | E-score |
| --- | --- |
| CTGCGGCA | -0.116 |
| CATCTTGC | -0.0221 |
| ACCACTTC | 0.0376 |
| CCCGGATC | -0.347 |
| ACTGAGGA | -0.169 |
| GTTAGCAA | 0.134 |
| AAGACTCC | -0.155 |
| ACGCATAA | 0.252 |
| AGTTTGCC | -0.0957 |
| ATTGCCAC | 0.0945 |
| CATCCATA | 0.187 |
| AATGACCT | 0.102 |
| ATTGTGAC | 0.031 |
| ATAGACCG | -0.0215 |
| CAGAAAGC | -0.139 |
| GTAGGGCA | -0.106 |
| ATACTCCG | -0.00106 |
| ACACGGCT | -0.0556 |
| CCAGGAGC | -0.344 |

For quick reference, copied from above (block 2):
| Substitution | relative binding score [%] |
| --- | --- |
| V142W | -1.05 |
| C72L | -0.0219 |
| I57D | -7.46 |
| T1R | 23.3 |
| A13Q | 40.3 |
| I162H | 4.99 |
| T1H | 23.2 |
| H122D | -1.37 |
| T154N | -4.73 |
| S9P | 3.61 |
